Measured values from different studies.
Each numbered part is a random draw from the data of one study; scales do not carry over between parts.

Series 1
Target: Krueppel-like factor 3, full length (KLF3, Homo sapiens, UniProt P57682, residues 1-345)
Sequence of UniProt P57682 (whole entry, looked up): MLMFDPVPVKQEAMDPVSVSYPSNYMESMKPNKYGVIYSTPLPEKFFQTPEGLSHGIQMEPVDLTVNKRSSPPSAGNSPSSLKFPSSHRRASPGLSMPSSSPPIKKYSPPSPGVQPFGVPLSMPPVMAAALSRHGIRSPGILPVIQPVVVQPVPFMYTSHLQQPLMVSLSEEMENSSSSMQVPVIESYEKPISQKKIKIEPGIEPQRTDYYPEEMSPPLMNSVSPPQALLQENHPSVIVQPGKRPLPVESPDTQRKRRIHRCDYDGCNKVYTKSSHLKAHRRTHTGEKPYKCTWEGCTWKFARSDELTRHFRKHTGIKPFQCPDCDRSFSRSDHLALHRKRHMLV
Technique: protein-binding microarray
Form: hairpin DNA
Medium: in vitro
Tested at: not given
Setting: whole hairpin DNA, median over replicate spots
Baseline: not given
Reading: higher = stronger binding
Endpoint: median fluorescence
All sequences stand within: GAGGCCG … CGGCCTCACACTC
ACCGCGCCCAGCCTCCTGGCTGGGCGCGGT (5mC at 38): 8810 a.u.
AGCACGCCCAGCCTCCTGGCTGGGCGTGCT: 9860 a.u.
ACCGCGCTCAGCCTCCTGGCTGAGCGCGGT: 8010 a.u.
CCCGCGCCCAGCCTCCTGGCTGGGCGCGGG: 9240 a.u.
ACCGTGCCCAGCCTCCTGGCTGGGCACGGT: 8950 a.u.
ACCACGCCGAGCCTCCTGGCTCGGCGTGGT: 9840 a.u.
ACCGCGCCCAGCCTCCTGGCTGGGCGCGGT (5mC at 10 12 34): 8220 a.u.
ATCGCGCCCAGCCTCCTGGCTGGGCGCGAT: 8200 a.u.
CGCACGCCCAGCCTCCTGGCTGGGCGTGCG (5mC at 8): 9730 a.u.
ACCGCCCCCAGCCTCCTGGCTGGGGGCGGT (5mC at 13): 8480 a.u.
ACCACGCCCGGCCTCCTGGCCGGGCGTGGT (5mC at 16): 9760 a.u.
ACCACGCGCAGCCTCCTGGCTGCGCGTGGT (5mC at 14): 26800 a.u.
ACTGCGCCCAGCCTCCTGGCTGGGCGCAGT: 8390 a.u.

Series 2
Target: Histone acetyltransferase KAT6A, winged helix 2, GST fusion (KAT6A, Homo sapiens, UniProt Q92794, residues 85-181)
Technique: protein binding microarray
Form: double-stranded DNA, one strand shown
Medium: in vitro
Tested at: not given
Setting: 8-mer, flanks averaged, mean of 2 arrays, mostly near background
Baseline: not given
Reading: higher = stronger binding
Endpoint: E-score
Construct (chain): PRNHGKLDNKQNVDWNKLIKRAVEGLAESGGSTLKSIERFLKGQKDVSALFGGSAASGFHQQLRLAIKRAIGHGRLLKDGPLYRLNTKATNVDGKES
CCGGAAGA: 0.0818
CCGTGTCG: 0.0291
GGCTGTTA: 0.0817
GACCCAAA: 0.048
CTGAAGGA: -0.0687
ACTTACAA: 0.0219
CCAATAGA: -0.0772
AACTTTCC: -0.147
CGTAAGTC: -0.207
CTAATACC: -0.0325
ACAGACCG: -0.0654
GCAGTGCC: 0.157
GTTCACTA: -0.0715
CCTTTAAC: 0.0698
AGCAAACG: 0.0503
AACATTGC: -0.216
ACTCAGAA: 0.0963
GTATTTAA: -0.0827

Series 3
Target: RNA binding protein fox-1 homolog 2, RRM domain, GST-SBP tag (RBFOX2, Homo sapiens, UniProt O43251-10, residues 100-194)
Technique: RNA Bind-n-Seq
Form: RNA
Medium: in vitro
Tested at: 365 nM
Setting: natural RNA segment, single round, ends assumed
Baseline: no-protein control
Reading: higher = stronger binding
Endpoint: RBNS enrichment (R)
Target sequence (chain): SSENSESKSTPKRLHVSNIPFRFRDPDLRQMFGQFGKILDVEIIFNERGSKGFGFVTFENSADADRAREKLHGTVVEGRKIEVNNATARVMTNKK
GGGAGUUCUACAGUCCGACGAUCAGAUCCCGUCACUAUCUGGCAAAUGCACCAUGCGGCCAGGCUGCAGGGGCUCUGGGCAUGCUGUGCCUGAGCUCCCUCAAAUGCCCAACCUAAGGCUUUGUGGGUAAGAUUGGAAUUCUCGGGUGCCAA: 0.354
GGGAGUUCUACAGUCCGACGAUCCUUGUUUGAGAAUGGCUACUAGAGUUUAAGAGGCUAUGUAUGGAGUUUGUUGGGGAUGUAGUGAUGGUGGUAAGGAUCAGACCUAGGGCCCAGUGUACACUUAAGCACAUUGGAAUUCUCGGGUGCCAA: 3.15
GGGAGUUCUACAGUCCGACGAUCUUCAUUUCAUUUAGGGACUCUGUGGGGGGAGGGGCAGGCAUUGCAUUCUCACAUGACAUUUCAAUUCAUCUCUACCAAUGAAGAGCGUCCUCCCUGUUGGGAGCAAUCUGUGGAAUUCUCGGGUGCCAA: 0.638
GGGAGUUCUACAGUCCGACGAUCGGAGGCAGCGCCCGAAUGAAGAGGCCUGUAGUGGACAUGCUCCUAAUCUUGCUGUCUGCCUUCCUAGCCUUUUCCACCUUGGCUUGCCUCUGAGGGUAGAUUUUUUUUUUUGGAAUUCUCGGGUGCCAA: 0.488
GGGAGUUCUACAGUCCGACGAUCCUGUAUUUUAUGUAUGCUUUACUGGUAAGUGUGCCAAUAAUAAACUGUGUUAAUGACCAAAGUAAGUAAUCUGGCUGUUGGUGUGAGUACCUGUGAAUCCAUCUGCUCACUGGAAUUCUCGGGUGCCAA: 2.35
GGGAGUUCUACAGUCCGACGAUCAAGAAGGCCUCUCUUGCUCCCAAGGGCCCUCACCAGAGGCCAGGGCUGCCAGUCACUGGUCUGGGGGGUGGAGGCCUGAGCUGAGGGCAGGGUGCCUGACCUGUGUGCCGUGGAAUUCUCGGGUGCCAA: 0.29
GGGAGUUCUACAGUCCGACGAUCGAAAAAAAAAGCCACACGAAGUGCAAUAGGGUUGUGCGGCGACUCAUUGAUAUUUCUCUGAUGUGAGAUAGAGCUGUGUGUGUGUGACUGGCUAGCAGCUAUCAGUAUUAUGGAAUUCUCGGGUGCCAA: 0.979
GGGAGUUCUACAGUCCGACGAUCGAUGGAAUGCAUCCCACCUUGCCAAAGCACUUACACCAGUUUGACUGUGCUAGCUAAAAGACAAAUUUAAGGGGAGCUCUUCAACAUUAAGGCAGUAUGAUAUCAUGCUUUGGAAUUCUCGGGUGCCAA: 0.772
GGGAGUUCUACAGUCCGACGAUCCCUUUCCCAGCUUCAGAUCUUGGGGAGAUCCAUCCAAGGGGUUCAGCCCUCUCCUGCCUCCAUGCCUUGGGUCCCUGAAGAGCUUAGAACCCAAAGCUAGGGCCACCCCUUGGAAUUCUCGGGUGCCAA: 0.92
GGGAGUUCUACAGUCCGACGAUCGCAAAAGCACAGACGUUCAUGUUUUCUAUCAUGUAAAAUCCUGUAGUUAAGCUGUAUAUUAGCAGUGAAGGUGUUAGAGAGAUGAGAUGAUGGUUUGAAAGUGUGUUGAAUGGAAUUCUCGGGUGCCAA: 2.05
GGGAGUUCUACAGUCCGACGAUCGACCGCAUUUUCUCUUGGUUUCUAAAAGGAAGGGAAUCUUCCCGAUUUUUCUAAGAUGUUGAGUAUUGUGUAAGUAAGCUUUGAGUCUUUGAACCUGAUUGAAAUGCAAAUGGAAUUCUCGGGUGCCAA: 0.524
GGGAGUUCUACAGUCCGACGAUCGCGGCUGACCUCCAUGAUCGGACGUUGCCGCCUCUGUGUACAUUAUUUUCCUUACUGAAAUCAAGUGUUUGACUUUUUACAAAAGUGAAACCUUACCCGAGAGGAGUUUCUGGAAUUCUCGGGUGCCAA: 0.28

Series 4
Target: Fragile X messenger ribonucleoprotein 1, C-terminal low-complexity region (Fmr1, Mus musculus, UniProt P35922)
Technique: RNA Bind-n-Seq
Form: RNA
Medium: in vitro
Tested at: 200 nM
Setting: whole 134-nt RNA, ends assumed
Added: 150 mM LiCl
Baseline: input library
Reading: higher = stronger binding
Endpoint: log2 enrichment
Library: 7-deaza-guanosine replaces G
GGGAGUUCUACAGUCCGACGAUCCAAGUCCUGUGCUACACAUCGUAUGUACCGAAUCGGAGGAAAAAAAGGAAAAAGGAAAGUAUUAUGUUACGCCGUUCGGAUCUGCACUUCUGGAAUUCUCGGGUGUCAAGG: -0.312
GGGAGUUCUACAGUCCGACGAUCUCAAGUCCUGUGCUACACAUCGUAUGUACCGAAUCGGAAAAAGGUGGUUUUUGGAAAGUAUUAUGUUACGCCGUUCGGAUCUGCACUUCCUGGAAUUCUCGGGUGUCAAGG: -0.538
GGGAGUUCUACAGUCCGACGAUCCCUCAAGUCCUGUGCUACACAUCGUAUGUACCGAAUCGGGUGGGAGGGAGGGAAAGUAUUAUGUUACGCCGUUCGGAUCUGCACUUCCAGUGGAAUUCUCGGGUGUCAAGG: -0.738
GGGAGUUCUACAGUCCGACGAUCUGGGAGGUGGAUUUUGUUUAUUUUUUUAGCUCAUUUCCAGGGGUGGGAAUUUUAUUUUAAUAUGUGUCAUGAAUAAAGUUGUUUUUGAAAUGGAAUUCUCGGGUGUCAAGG: 0.00263
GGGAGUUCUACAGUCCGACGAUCCAAGUCCUGUGCUACACAUCGUAUGUACCGAAUCGGGGAAAGGGGAAAGGGAAAGGAAAGUAUUAUGUUACGCCGUUCGGAUCUGCACUUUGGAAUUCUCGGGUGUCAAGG: -0.663

Series 5
Target: TAR DNA-binding protein 43, full length, His tag (TARDBP, Homo sapiens, UniProt Q13148, residues 1-414)
Technique: RNA Bind-n-Seq
Form: RNA
Medium: in vitro
Tested at: 20 nM
Setting: 6-mer, flanks averaged, single round
Added: 150 mM LiCl
Baseline: input library
Reading: higher = stronger binding
Endpoint: 6-mer enrichment (R)
AUCUUG: 0.916
GGAGCG: 1.17
GCUACU: 0.866
CUUCUC: 0.892
CGGACA: 0.962
CUUUCA: 0.908
AUUCAC: 0.87
UAAUAG: 0.956
CGCGAG: 0.947
AUACUC: 0.84
GUUGGU: 1.26
CUCACA: 0.835
AACCAC: 0.862
GCUAGG: 1.02
UAUCGA: 0.823

Excerpt of the above (series 2):
CCGTGTCG: 0.0291
GGCTGTTA: 0.0817
GACCCAAA: 0.048
CTGAAGGA: -0.0687
